Measured values pooled from the literature.
Each numbered part is a random draw from the data of one study; scales do not carry over between parts. Changes are numbered by the printed parent chain.

Sample 1 — method: protein-binding microarray; form: double-stranded DNA, one strand shown; medium: in vitro; tested at: not given; reading: higher = stronger binding
Target: Transcription factor Sp1 (SP1, Homo sapiens, UniProt P08047, residues 1-785, full length assumed)
UniProt P08047, sequence (whole entry, looked up): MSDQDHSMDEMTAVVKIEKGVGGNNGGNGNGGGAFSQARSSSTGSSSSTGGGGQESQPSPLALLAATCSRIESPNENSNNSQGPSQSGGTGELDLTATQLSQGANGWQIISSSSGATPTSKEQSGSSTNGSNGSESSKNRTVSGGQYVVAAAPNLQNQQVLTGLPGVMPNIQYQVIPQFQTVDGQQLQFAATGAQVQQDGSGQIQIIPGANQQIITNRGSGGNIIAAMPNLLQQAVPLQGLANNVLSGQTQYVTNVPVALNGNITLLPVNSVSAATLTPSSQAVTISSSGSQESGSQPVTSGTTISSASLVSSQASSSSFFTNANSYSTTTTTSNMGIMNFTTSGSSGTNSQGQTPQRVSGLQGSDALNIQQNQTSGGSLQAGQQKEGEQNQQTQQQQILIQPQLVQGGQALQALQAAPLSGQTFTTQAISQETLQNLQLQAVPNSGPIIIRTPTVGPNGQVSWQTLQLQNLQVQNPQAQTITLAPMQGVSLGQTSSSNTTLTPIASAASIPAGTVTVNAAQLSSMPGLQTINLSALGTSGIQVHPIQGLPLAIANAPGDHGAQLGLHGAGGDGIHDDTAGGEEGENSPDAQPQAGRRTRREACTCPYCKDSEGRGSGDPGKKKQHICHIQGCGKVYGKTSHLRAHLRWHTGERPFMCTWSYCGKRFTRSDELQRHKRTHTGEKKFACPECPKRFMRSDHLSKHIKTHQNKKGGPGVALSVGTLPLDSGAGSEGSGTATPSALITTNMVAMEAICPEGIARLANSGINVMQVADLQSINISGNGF
Notes: k-mer, scored over probes, only values ≥0.25
| Strand | E-score |
| --- | --- |
| CACCACCA | 0.261 |
| TCCCCAAA | 0.254 |
| AAGGGGAG | 0.318 |
| AGAACAAT | 0.263 |
| CTCCCCGC | 0.377 |
| ACACTGTA | 0.275 |
| ACCCCACT | 0.357 |
| GGGCGTAC | 0.3 |

Sample 2 — target: CCNB1, cyclin fold, Cln2 fusion (human); method: yeast growth competition, sequencing; medium: yeast; notes: weak parent motif; relative to: not given; reading: higher = stronger binding
Starting sequence: CDC25A docking peptide (human); PPHRRRLLFACSP
| Change | normalised enrichment score |
| --- | --- |
| PPHRRGLLFACSP [R6G] | 0.105 |
| PPHRHRLLFACSP [R5H] | 0.712 |
| PPHRRRLLFACSL [P13L] | 0.776 |
| PPHRNRLLFACSP [R5N] | -0.128 |
| PPHRRRLLFAASP [C11A] | 1.29 |
| PPHRRRLLFACNP [S12N] | 0.965 |
| PPERRRLLFACSP [H3E] | 0.0469 |
| PPHRRRLSFACSP [L8S] | 0.449 |
| PPHRRRLLFACAP [S12A] | 0.165 |

Sample 3 — method: RNA Bind-n-Seq; form: RNA; medium: in vitro; tested at: 365 nM; relative to: no-protein control; reading: higher = stronger binding
Target: RNA binding protein fox-1 homolog 2, RRM domain, GST-SBP tag (RBFOX2, Homo sapiens, UniProt O43251-10, residues 100-194)
Notes: natural RNA segment, single round, ends assumed
All sequences stand within: GGGAGUUCUACAGUCCGACGAUC … UGGAAUUCUCGGGUGCCAA
Residues (chain): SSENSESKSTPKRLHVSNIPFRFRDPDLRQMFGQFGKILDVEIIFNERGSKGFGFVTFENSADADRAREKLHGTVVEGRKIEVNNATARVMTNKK
| Strand | RBNS enrichment (R) |
| --- | --- |
| CUGAGGUCUGUGCUUGAAAGCCGUCCGAAGGCAUUCUUGUUAGCUUUGCUUUUCUCCCCAUAUCCCAAGGCGAAGCGCUGAGAUUCUUCCAUCUAAAAAACCCUCGACCC | 0.627 |
| GUGGCCAGGCAGGAUUAAAGGUAUUCUAAAUCCUUACCACGGGGCAUUUUCUGGAUGCAAAGGCACUAGCCCAUUUGAAAAUUAAUAUUCCGUGCCUCUGGGCCAAGAGG | 0.381 |
| UCUCUUUAGGUAAGAUUUGGUUUGUUUGUGUCUUGUUUGUUUCCCUCUCCAAAUUCUUCCUUCUUUGUGCACCCUGCCUUUCUUCCCUUCCAUCCUUUCUUUUUUGUAUA | 24.9 |
| GCUGGGGCCCCUCUGUCUCAACCCGCAGACCCUUGACUGAAUGAGAGAGGCCAGAGGAUGCUCCCCAUGCUGCCACUAUUUAUUGUGAGCCCUGGAGGCUCCCAUGUGCU | 0.32 |
| GCCAACACACGGCCCUGCCCCUCUAGGCACCCACCUGCCUCCCACGGACUCCUGGGCAGCACCCAGCCUGACAGUGUCGAGUAUAUUAUUAUUAAUAUUAUUAUGACUUU | 0.469 |
| AUUUAUAAGCUCUAAGUAAUCAGCUUUAUCUAAUUUGAGGGCAUUAAAAUUACUGCCUAGAACUUUGAGAAGAGAAAAAUUCAGGGAUAAGUUGAAAGGCACUGGAACUG | 0.353 |
| UUUUUCUAUACUGAAUACCCUUUGAGAUUUGUGUGGGACAUGGGUCCAUGUGGGUUUAGUGACAGAGAAGAGUUCCUCCAAGGACUCUUGGAGAGGGGCCACAUCUGAGG | 0.469 |
| CCAUGAUUUAUGUUUUCAGGGGAUGCCCAUUUGUCCCAAGCUUAUCCUGUAAUUCUAGAAUUACCUGGUGUCCUGAUGCAUUUUCCACUAGAGGUUGCUAAUCAGCAUGU | 1.73 |
| AUAAAAUUUACCAAGUAAUAGAUCAGUACUCACUAAUAUUUUUGAGACCAUAGUUGUCUGGUCAGAAAAAUUAUAUUAAAUUAGUAAAUUCUAGAAGCUCUUUAAAAGGG | 0.755 |
| GUGUCAGGGGCAGAGAGUGAUGGGCACGAUUUAACAGGGAAAGAAAUGGGGCCAACAGUUCUUCCUGUUCGGUGCAGCGGGUGCUAGUAGGAUGCCCUAGUCCUUGAUGG | 1.01 |
| UGUCUUGAUAAGAGCAGAUCUGGGGACUGAUCGGAUUGGCAGGAAAAGAACAGAGUGCAUCUCUUGGGAUGGGCUUCUCUCGGAGUGUAAAAGCAAGGGGCCAGGAUUGU | 0.365 |

Other studies, line by line
| Substance | target | assay | test system | setting | scale | measurement | result |
| --- | --- | --- | --- | --- | --- | --- | --- |
| PhoQ, residues 284 288 289 292 302 303 NLMGRA | PhoP, residues 12 14 15 18 19 SEGLL (Escherichia coli, UniProt P23836) | Sort-seq, item: YFP reporter | E. coli | PhoQ-PhoP variant library, with: 10 µM Mg2+ | relative to: high Mg2+ state, higher = stronger signaling | fold induction | 14.9 |

For quick reference, copied from above (sample 3):
| Strand | RBNS enrichment (R) |
| --- | --- |
| AUUUAUAAGCUCUAAGUAAUCAGCUUUAUCUAAUUUGAGGGCAUUAAAAUUACUGCCUAGAACUUUGAGAAGAGAAAAAUUCAGGGAUAAGUUGAAAGGCACUGGAACUG | 0.353 |
| CCAUGAUUUAUGUUUUCAGGGGAUGCCCAUUUGUCCCAAGCUUAUCCUGUAAUUCUAGAAUUACCUGGUGUCCUGAUGCAUUUUCCACUAGAGGUUGCUAAUCAGCAUGU | 1.73 |
| UUUUUCUAUACUGAAUACCCUUUGAGAUUUGUGUGGGACAUGGGUCCAUGUGGGUUUAGUGACAGAGAAGAGUUCCUCCAAGGACUCUUGGAGAGGGGCCACAUCUGAGG | 0.469 |
| UCUCUUUAGGUAAGAUUUGGUUUGUUUGUGUCUUGUUUGUUUCCCUCUCCAAAUUCUUCCUUCUUUGUGCACCCUGCCUUUCUUCCCUUCCAUCCUUUCUUUUUUGUAUA | 24.9 |
